# Measured values collected from several papers.
# Compare with care: the assays were run in different laboratories. Numbers after ± are the reported error.
# APP: Amyloid-beta precursor protein (APP, Homo sapiens, UniProt P05067)
# Chain of UniProt P05067 (whole entry, looked up): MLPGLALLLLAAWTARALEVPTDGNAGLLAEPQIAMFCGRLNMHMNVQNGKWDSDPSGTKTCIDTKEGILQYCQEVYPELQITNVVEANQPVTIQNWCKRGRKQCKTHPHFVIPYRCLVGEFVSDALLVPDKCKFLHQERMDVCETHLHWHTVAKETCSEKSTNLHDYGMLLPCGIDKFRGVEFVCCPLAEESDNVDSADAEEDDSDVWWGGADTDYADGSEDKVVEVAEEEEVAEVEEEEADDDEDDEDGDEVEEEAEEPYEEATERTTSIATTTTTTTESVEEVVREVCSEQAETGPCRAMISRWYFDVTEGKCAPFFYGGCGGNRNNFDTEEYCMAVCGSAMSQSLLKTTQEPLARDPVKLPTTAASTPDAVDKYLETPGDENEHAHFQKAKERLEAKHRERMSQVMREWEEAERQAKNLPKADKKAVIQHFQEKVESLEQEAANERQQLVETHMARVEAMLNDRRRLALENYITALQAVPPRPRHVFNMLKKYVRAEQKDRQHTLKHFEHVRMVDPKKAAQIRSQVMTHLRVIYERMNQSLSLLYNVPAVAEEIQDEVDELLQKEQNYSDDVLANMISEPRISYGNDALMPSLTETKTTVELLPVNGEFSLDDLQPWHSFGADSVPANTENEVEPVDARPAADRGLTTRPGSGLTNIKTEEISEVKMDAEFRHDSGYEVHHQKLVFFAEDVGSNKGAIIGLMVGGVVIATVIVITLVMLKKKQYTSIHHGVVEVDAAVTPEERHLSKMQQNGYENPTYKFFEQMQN
# APP Aβ42 aggregates: Amyloid-beta precursor protein, Aβ42 aggregates (APP, Homo sapiens, UniProt P05067)
SMILES,target,assay,test system,setting,how to read,endpoint,result
CC(C)C[C@@H]1NC(=O)CN(C)C(=O)CCCC(=O)NCCCC[C@@H](C(=O)N[C@@H](CCCNC(=N)N)C(N)=O)NC(=O)[C@H](Cc2ccccc2)NC(=O)[C@H](Cc2ccccc2)NC(=O)c2ccccc2NC1=O,"Amyloid-beta precursor protein, monomer (APP, Homo sapiens, UniProt P05067)","amyloid aggregation, inhibitor, fluorescence",,"40 µM, pH 7.4",,inhibition,75.1%
COc1cc(OC)c2c(O)c3c(=O)cc(C)oc3c(-c3c(OC)cc4cc5c(c(O)c4c3OC)C(=O)CC(C)(O)O5)c2c1 (stereo not shown),APP,thioflavin-T fluorescence,,25 µM,relative to: untreated,Aβ aggregation,27 ± 11.4%
CN(C)c1ccc(C=C(C#N)C(=O)OCC(O)CO)cc1 (stereo not shown),APP Aβ42 aggregates,"binding, fluorescence spectroscopy",PBS,"4 µM, together with: pre-aggregated Aβ(1-42) 5 µM",,emission maximum,467 nm
CCCC[C@@H]1NC(=O)[C@@H](CC(C)C)NC(=O)[C@H](CCCCN)NC(=O)NNC(=O)[C@H](Cc2c[nH]cn2)NC(=O)[C@@H](Cc2c[nH]c3ccccc23)NC1=O,APP,"aggregation, thioflavin T fluorescence",,"0.1 molar ratio, 37 °C, together with: 25 µM amyloid-beta",,inhibition,75%
N#C/C(=C\c1ccc2cc(N3CCCCC3)ccc2c1)C(=O)OCC(O)CO (stereo not shown),APP Aβ42 aggregates,fluorescence,,together with: aggregated Abeta42 5 µM,relative to: free compound,emission intensity increase,6.6 fold
CCCCN(CCCC)c1ccc(C=C(C#N)C(=O)OCCOCCOCCOC)cc1,APP Aβ42 aggregates,"binding, fluorescence spectroscopy",PBS,"4 µM, together with: pre-aggregated Aβ(1-42) 5 µM",relative to: probe without Aβ,fluorescence intensity,9.4 fold
CC(C)C[C@@H]1NC(=O)CN(C)C(=O)CCCCC(=O)NCCCC[C@@H](C(=O)N[C@@H](CCCNC(=N)N)C(N)=O)NC(=O)[C@H](Cc2ccccc2)NC(=O)[C@H](Cc2ccccc2)NC(=O)[C@H](C(C)C)NC1=O,"Amyloid-beta precursor protein, Aβ40 fibrils (APP, Homo sapiens, UniProt P05067)",ThT fluorescence,,"2-fold molar excess, pH 7.4, 37 °C, together with: preformed Aβ1-40 fibrils 40 µM",,amyloid fibril disruption,52.1%
CC[C@H](C)[C@H](NC(=O)[C@@H](NC(=O)[C@@H](N)C(C)C)C(C)C)C(=O)N[C@@H](C)C(N)=O,APP,"amyloid aggregation, inhibitor, fluorescence",,"2 µM, 24 h",,inhibition,58.8%
O=C(C=Cc1ccc(O)c(OC(F)(F)F)c1)C1=C(C=Cc2ccc(O)c(OC(F)(F)F)c2)OCC1,APP,"Aβ aggregation, SDS-PAGE western blot, item: Aβ1-42 75-200 kDa band",,"30 µM, 24 h, 37 °C, together with: Aβ1-42 10 µM",relative to: DMSO,band density,3060 ± 854%
CC[C@H](C)[C@H](NC(=O)[C@@H](NC(=O)[C@@H](N)C(C)C)C(C)C)C(=O)NCC(N)=O,APP,"amyloid aggregation, inhibitor, fluorescence",,"2 µM, 24 h",,inhibition,62.7%
COCCOCCOCCOC(=O)/C(C#N)=C/c1ccc2cc(N3CCOCC3)ccc2c1,APP Aβ42 aggregates,fluorescence,,"free probe, 5% DMSO in water",,excitation maximum,400 nm
COCCOCCOCCOC(=O)C(C#N)=Cc1ccc2cc(N3CCCCC3)ccc2c1,APP Aβ42 aggregates,"binding, fluorescence spectroscopy",PBS,"4 µM, together with: pre-aggregated Aβ(1-42) 5 µM",,excitation maximum,440 nm
CC[C@H](C)[C@H](NC(=O)[C@@H](Cc1ccccc1)NC(=O)[C@@H](N)C(C)C)C(=O)N[C@@H](C)C(N)=O,APP,"amyloid aggregation, inhibitor, fluorescence",,"4 µM, 24 h",,inhibition,66.2%

# Excerpt of the above:
SMILES,target,assay,test system,setting,how to read,endpoint,result
CC[C@H](C)[C@H](NC(=O)[C@@H](NC(=O)[C@@H](N)C(C)C)C(C)C)C(=O)NCC(N)=O,APP,"amyloid aggregation, inhibitor, fluorescence",,"2 µM, 24 h",,inhibition,62.7%
